Results from different studies.
Each line is one published result; not all experiments were run side by side.
Target: Serine/threonine-protein kinase PRP4 homolog (PRPF4B, Homo sapiens, UniProt Q13523)

| test | test system | setting | scale | quantity | value | Compound |
| --- | --- | --- | --- | --- | --- | --- |
| enzyme activity, inhibitor | – | 10 µM | – | activity vs control | 93% | O=C(Cc1ccc(OCc2ccccc2)cc1)NC1(C(=O)O)CCN(C(=O)c2ccc(-c3cccc(Cl)c3)cc2)CC1 |
| binding, competition with immobilised ligand | – | 1 µM | – | remaining binding | 79% | COc1cc(Nc2nccc(-c3cnn4nc(OC)ccc34)n2)cc(C(F)(F)F)c1 |
| binding, competition with immobilised ligand | – | 1 µM | – | remaining binding | 91% | Nc1ncc2c(n1)-c1c([nH]c3ccc(C4=CCOCC4)cc13)CCC2 |
| KINOMEscan | – | 1 µM | reference: DMSO control | remaining binding | 79% | C=CC(=O)N1CCc2ccc(-n3c(=O)ccc4cnc5ccc(-c6cnn(C)c6)cc5c43)cc21 |
| inhibitor | – | 1 µM, PRP4 | reference: control | remaining activity | 100% | COc1cc(Nc2nc(C)cc(-c3cnn4nc(OC)ccc34)n2)cc(C(F)(F)F)c1 |
| binding, competition with immobilised ligand | – | 1 µM | – | remaining binding | 94% | CNC(=O)C1CCN(c2cc(C)c(F)cc2NC(=O)c2ccc(-c3cc(O)ccc3C)c(C)c2)CC1 |
| inhibitor, KiNativ profiling | biochemical | 2 µM | – | inhibition | 7% | C=CC(=O)Nc1cc(-c2nn(C3CCN(CCNC(=O)[C@H](C)CCC45CC6CC(CC(C6)C4)C5)CC3)c3ncnc(N)c23)ccc1Oc1ccccc1 |
| enzyme activity, inhibitor | – | 1 µM | – | inhibition | 1% | CN1CC[C@@H](COc2cnc(C#N)cc2-c2ccn3nc(NC(=O)C4CC4)cc3c2)C1 |
| binding, competition with immobilised ligand | – | 0.1 µM | – | remaining binding | 100% | Cc1cnc2nc1Nc1cccc(c1)COC/C=C/COCc1cc(ccc1OCCN1CCOCC1)N2 |
| cell-free assay, competition with immobilised ligand | – | 10 µM | – | remaining binding | 100% | CC(C)=CC1OC(C)(C)C2C=C3C(=O)C(Cl)=CC(O)C3C3C(O)C4OC4C(=O)C132 (centres unmarked) |
| cell-free assay, competition with immobilised ligand | – | 1 µM | – | remaining binding | 100% | C=CC(=O)N1CCCC(n2c(=O)c3ncccc3n(Cc3ccc(Oc4ccccc4)cc3)c2=O)C1 (centres unmarked) |
| cell-free assay, competition with immobilised ligand | – | 3 µM | – | remaining binding | 100% | COc1c(Cl)cccc1Nc1c(-c2ccncc2C#C[C@@]2(C)CCCN2C(=O)/C=C/CN(C)C)[nH]c2c1C(=O)NCC2 |
| KinomeScan | – | 0.1 µM | reference: untreated | remaining binding | 100% | CNC1C[S+]2CC[S+]3CC[S+](C1)[Ru-4]321([N]=C=S)[n]2c3ccc(OC)cc3c3c4c(c5cc(F)c[n+]1c5c32)C(=O)NC4=O (centres unmarked) |
| cell-free assay, competition with immobilised ligand | – | 1 µM | – | remaining binding | 100% | Cc1ccc(-c2c(/C=C(\C#N)C(=O)NC(C)C)n(CCCO)c3ncnc(N)c23)cc1 |

Some of these lines once more:
| test | test system | setting | scale | quantity | value | Compound |
| --- | --- | --- | --- | --- | --- | --- |
| cell-free assay, competition with immobilised ligand | – | 10 µM | – | remaining binding | 100% | CC(C)=CC1OC(C)(C)C2C=C3C(=O)C(Cl)=CC(O)C3C3C(O)C4OC4C(=O)C132 (centres unmarked) |
| cell-free assay, competition with immobilised ligand | – | 1 µM | – | remaining binding | 100% | C=CC(=O)N1CCCC(n2c(=O)c3ncccc3n(Cc3ccc(Oc4ccccc4)cc3)c2=O)C1 (centres unmarked) |
